Results collected from several papers.
Each line is one published result; not all experiments were run side by side. “And” joins repeats or separate records; there may be more than shown. ± marks the error that the study gave.
Sequence of UniProt P13798 (whole entry, looked up): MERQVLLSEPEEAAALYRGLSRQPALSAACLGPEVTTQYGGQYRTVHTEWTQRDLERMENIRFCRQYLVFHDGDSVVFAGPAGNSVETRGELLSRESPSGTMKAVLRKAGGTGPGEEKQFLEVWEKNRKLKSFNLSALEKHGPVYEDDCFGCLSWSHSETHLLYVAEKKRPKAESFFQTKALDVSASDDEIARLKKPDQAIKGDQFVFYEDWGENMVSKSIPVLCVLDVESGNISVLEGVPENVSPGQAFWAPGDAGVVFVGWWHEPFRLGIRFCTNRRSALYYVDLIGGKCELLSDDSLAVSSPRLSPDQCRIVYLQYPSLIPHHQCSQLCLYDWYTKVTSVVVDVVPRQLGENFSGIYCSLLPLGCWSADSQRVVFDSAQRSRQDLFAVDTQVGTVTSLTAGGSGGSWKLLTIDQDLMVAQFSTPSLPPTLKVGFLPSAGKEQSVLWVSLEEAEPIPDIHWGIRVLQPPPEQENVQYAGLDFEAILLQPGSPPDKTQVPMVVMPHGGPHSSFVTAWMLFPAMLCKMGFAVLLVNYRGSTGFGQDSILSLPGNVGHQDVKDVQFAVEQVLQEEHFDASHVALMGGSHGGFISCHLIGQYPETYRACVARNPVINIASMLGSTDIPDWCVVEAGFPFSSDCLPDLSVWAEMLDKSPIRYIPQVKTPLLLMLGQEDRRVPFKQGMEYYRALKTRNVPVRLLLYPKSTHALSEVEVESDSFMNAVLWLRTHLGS
Sequence of UniProt Q15746 (whole entry, looked up): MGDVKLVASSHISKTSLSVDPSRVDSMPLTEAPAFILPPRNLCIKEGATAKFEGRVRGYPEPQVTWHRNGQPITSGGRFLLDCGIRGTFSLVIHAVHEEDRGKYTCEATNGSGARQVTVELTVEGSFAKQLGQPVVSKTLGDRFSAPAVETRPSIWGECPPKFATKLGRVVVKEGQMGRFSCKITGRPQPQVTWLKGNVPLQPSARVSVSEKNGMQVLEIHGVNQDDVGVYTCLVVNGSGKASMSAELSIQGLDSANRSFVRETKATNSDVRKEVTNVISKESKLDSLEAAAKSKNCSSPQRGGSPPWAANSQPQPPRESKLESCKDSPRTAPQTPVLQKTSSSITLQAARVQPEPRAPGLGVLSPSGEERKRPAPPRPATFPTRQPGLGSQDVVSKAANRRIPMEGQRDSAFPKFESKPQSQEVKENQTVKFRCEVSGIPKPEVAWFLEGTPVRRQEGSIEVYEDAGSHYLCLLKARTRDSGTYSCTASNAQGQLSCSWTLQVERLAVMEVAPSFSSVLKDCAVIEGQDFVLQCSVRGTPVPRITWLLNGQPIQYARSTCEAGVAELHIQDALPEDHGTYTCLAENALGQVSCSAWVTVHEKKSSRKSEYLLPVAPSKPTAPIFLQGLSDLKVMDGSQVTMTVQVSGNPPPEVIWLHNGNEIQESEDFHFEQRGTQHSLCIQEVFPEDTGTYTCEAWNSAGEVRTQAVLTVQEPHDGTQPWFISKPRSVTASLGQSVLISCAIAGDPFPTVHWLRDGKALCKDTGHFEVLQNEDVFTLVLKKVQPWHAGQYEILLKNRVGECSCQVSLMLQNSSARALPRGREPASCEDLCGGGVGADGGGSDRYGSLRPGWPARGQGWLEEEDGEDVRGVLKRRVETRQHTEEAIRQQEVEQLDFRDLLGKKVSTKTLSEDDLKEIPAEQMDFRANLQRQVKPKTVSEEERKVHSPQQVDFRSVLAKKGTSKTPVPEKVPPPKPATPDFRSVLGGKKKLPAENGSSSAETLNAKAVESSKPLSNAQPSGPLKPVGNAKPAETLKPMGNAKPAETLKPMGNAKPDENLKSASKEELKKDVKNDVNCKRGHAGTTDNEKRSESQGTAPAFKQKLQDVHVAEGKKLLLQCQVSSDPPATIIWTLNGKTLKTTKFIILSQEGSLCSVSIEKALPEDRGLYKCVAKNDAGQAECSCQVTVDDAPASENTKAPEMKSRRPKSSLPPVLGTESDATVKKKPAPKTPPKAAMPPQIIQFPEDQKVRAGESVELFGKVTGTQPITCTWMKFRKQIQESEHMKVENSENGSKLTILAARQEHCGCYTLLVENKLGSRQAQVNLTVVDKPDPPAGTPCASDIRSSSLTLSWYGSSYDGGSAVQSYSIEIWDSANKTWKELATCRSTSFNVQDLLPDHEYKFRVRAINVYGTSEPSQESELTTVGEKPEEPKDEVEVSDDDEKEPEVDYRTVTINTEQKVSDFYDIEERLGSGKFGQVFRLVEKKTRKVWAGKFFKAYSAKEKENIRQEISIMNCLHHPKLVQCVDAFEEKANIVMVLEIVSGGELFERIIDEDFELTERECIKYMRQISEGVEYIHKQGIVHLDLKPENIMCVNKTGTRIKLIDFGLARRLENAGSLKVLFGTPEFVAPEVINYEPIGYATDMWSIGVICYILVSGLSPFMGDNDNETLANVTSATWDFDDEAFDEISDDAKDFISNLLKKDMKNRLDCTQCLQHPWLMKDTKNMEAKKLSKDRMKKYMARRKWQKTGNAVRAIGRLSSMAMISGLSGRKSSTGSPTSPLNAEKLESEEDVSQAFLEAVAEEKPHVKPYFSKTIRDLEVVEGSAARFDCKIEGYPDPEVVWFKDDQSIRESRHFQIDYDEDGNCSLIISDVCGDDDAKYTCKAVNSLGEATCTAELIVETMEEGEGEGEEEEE

`COc1ncccc1-c1cnn2ccc(N3CCN(C(=O)OC(C)C)CC3)nc12` has a drug concentration of 8.5 µM (rat, thermal hyperalgesia model, brain; oral, 30 mg/kg, 180 min).
The lymphocytes of `COc1cccc(Oc2ccccc2NC(=O)CNC(=O)c2cccc3ccccc23)c1` is reported as 64% and 65% and 44.1% (esterase-deficient SCID mice, male, blood; oral, 40 mg/kg/day, 14 days, toxicity study; relative to: white cells).
With `O=C(c1ccc(Cl)cc1)N1CCN2C(=O)N(OC(=O)N3CCOc4ccccc43)C(=O)C2C1` (stereo not shown) the median ratio was 1.12 (APEH (Homo sapiens, UniProt P13798); enzyme activity, inhibitor, MS-based ABPP; SW-620 conditioned medium; 10 µM, 1 h, 37 °C; relative to: compound over DMSO, lower = stronger inhibition).
With `COc1ccc2nc3cc(Cl)ccc3c(Nc3cc(CN4CCCC4)c(O)c(CN4CCCC4)c3)c2n1` the blood pH was 7.54 (mouse, blood; intraperitoneal, 14 mg/kg).
For `CC(C)N(CCc1c[nH]c2cccc(OC(=O)CCCC(=O)O)c12)C(C)C.Cl`, the AUC(0-t) was 621 ng·h/mL (male beagle dog, plasma; subcutaneous, 1 mg/kg).
The tissue uptake of `C[C@@H](O)[C@@H](CO)NC(=O)[C@@H](CCCNC(=N)N)NC(=O)[C@@H]1CCCN1C(=O)[C@@H]1CSSC[C@H](NC(=O)[C@H](Cc2ccccc2)NC(=O)CN2CCN(CC(=O)O)CCN(CC(=O)O)CCN(CC(=O)O)CC2)C(=O)N[C@@H](Cc2ccc(O)cc2)C(=O)N[C@@H](Cc2ccccc2)C(=O)N[C@@H](CCC(N)=O)C(=O)N[C@@H](CC(N)=O)C(=O)N1` [gallium-68 labelled] is reported as 0.5 %ID/g (Wistar rat, healthy, Pituitary gland; intravenous, 8 MBq, 60 min, mean).
With `CC(C)CC(=O)OC[C@H]1O[C@@](C#N)(c2ccc3c(N)ncnn23)[C@H](O)[C@@H]1O` the recovery was 100% (plasma protein binding; human plasma; 9 µM, time not given).
Under “treatment-related AE causing withdrawal”, `O=C(c1ccc(F)c(F)c1Nc1ccc(I)cc1F)N1CC(O)([C@@H]2CCCCN2)C1` is recorded as 6% (human patients; oral, dose not given, dose escalation, tablet).
The tissue uptake of `CC[C@H](C)[C@H](NC(=O)[C@H](Cc1ccccc1)NC(=O)[C@H](CCC(=O)O)NC(=O)[C@H](CCCNC(=N)N)NC(=O)[C@H](C)NC(=O)[C@H](C)NC(=O)[C@H](CCC(N)=O)NC(=O)[C@H](CCC(=O)O)NC(=O)[C@H](CCC(=O)O)NC(=O)[C@H](CC(C)C)NC(=O)[C@H](Cc1ccc(O)cc1)NC(=O)[C@H](CO)NC(=O)[C@H](CO)NC(=O)[C@@H](NC(=O)[C@H](CC(=O)O)NC(=O)[C@H](CO)NC(=O)[C@@H](NC(=O)[C@H](Cc1ccccc1)NC(=O)[C@@H](NC(=O)CNC(=O)[C@H](CCC(=O)O)NC(=O)[C@H](C)NC(=O)CCc1c[nH]cn1)[C@@H](C)O)[C@@H](C)O)C(C)C)C(=O)N[C@@H](C)C(=O)N[C@@H](Cc1c[nH]c2ccccc12)C(=O)N[C@@H](CC(C)C)C(=O)N[C@H](C(=O)N[C@@H](CCCNC(=N)N)C(=O)NCC(=O)N[C@@H](CCCNC(=N)N)C(=O)N[C@@H](CCCCNC(=O)COCCOCCNC(=O)COCCOCCNC(=O)CC[C@H](NC(=O)CCCCCCCCCCCCCCCCC(=O)O)C(=O)O)C(=O)NCC(=O)NCC(=O)N[C@@H](CO)C(=O)N[C@@H](CCCCNc1c(NCCCCCN(O)C(=O)CCC(=O)NCCCCCN(O)C(=O)CCC(=O)NCCCCCN(O)C(C)=O)c(=O)c1=O)C(=O)O)C(C)C` [zirconium-89 labelled] is reported as 0.13 %ID/g (gamma counting; rat, stomach-duodenum content; intravenous, 3 nmol/kg, 4 h).
For `CO[C@H]1C[C@@H]2CC[C@@H](C)[C@@](O)(O2)C(=O)C(=O)N2CCCC[C@H]2C(=O)O[C@H]([C@H](C)C[C@@H]2CC[C@@H](OC(=O)NCCOCCOCCOCCOCCOCCOCCOCCOCCC(=O)N3CCc4cc(Cn5nc(-c6ccc7oc(N)nc7c6)c6c(N)ncnc65)ccc4C3)[C@H](OC)C2)C[C@@H](O)[C@H](C)/C=C(\C)[C@@H](O)[C@@H](OC)C(=O)[C@H](C)C[C@H](C)/C=C/C=C/C=C/1C`, “dose-reducing adverse events” read 0% (phase 1 dose escalation, refers to: neutropenia; advanced solid tumour patients; intravenous, 6 mg weekly, grade ≥3).
With `O=C1c2c(O)c(=O)ccn2N([C@@H]2c3ccccc3SCc3c2ccc(F)c3F)[C@@H]2COCCN12` the Cmax was 62.1 ng/mL (BALB/c mouse; subcutaneous, 1 mg/kg q12h).
`NCCCC[C@@H]1NC(=O)[C@@H](Cc2c[nH]c3ccccc23)NC(=O)[C@H](c2ccccc2)NC(=O)[C@@H]2C[C@@H](OC(=O)NCCN)CN2C(=O)[C@H](Cc2ccccc2)NC(=O)[C@H](Cc2ccc(OCc3ccccc3)cc2)NC1=O` — result for “placebo-corrected QTcF change”: 5.5 ms (healthy volunteers, male; 1950 µg twice daily, 8.0 h, post hoc).
For `CC[C@H](C)[C@@H]1NC(=O)[C@@H]2CCCN2C(=O)[C@H](CC(C)C)NC(=O)[C@H](CC(C)C)NC(=O)CNC(=O)[C@@H](NC(=O)[C@@H](NC(=O)[C@H](CC(=O)O)NC(=O)CNC(=O)[C@@H](NC(=O)[C@H](C)NC(=O)CNC(=O)[C@H](CCCCN)NC(=O)[C@H](CC(C)C)NC(=O)[C@H](CC(C)C)NC(=O)[C@H](CCCCN)NC(=O)CNC(=O)[C@@H](NC(=O)[C@@H](N)CC(C)C)C(C)C)C(C)C)C(C)C)CSSC[C@@H](C(=O)O)NC1=O`, “log2 fold change” read -2.09 (RNA-seq, refers to: Tgif1; mouse, traumatic brain injury model, frontal cortex and hippocampus; dose not given; relative to: TBI alone).
`CC(=O)c1c(C)c2cnc(Nc3ccc(C4CCN(CCS(C)(=O)=O)CC4)cn3)nc2n(C2CCCC2)c1=O` has a Cmax of 165 ng/mL (human, dose-escalation trial, plasma; oral, 75 mg twice daily, day 1, single dose).
For `CN1CCN(c2cccc3c2CCN(C(=O)/C=C/c2c(-n4cnnn4)ccc(Cl)c2F)[C@@H]3C(=O)Nc2ccc(C(=O)O)cc2)C(=O)C1`, the deaths was 0% (healthy human subjects; intravenous infusion, 4 mg/h, 2 h).
For `CCc1ccc(CC/C=C/c2ccc3c(c2)C(=O)CC3)cc1`, the Calcium was 2.54 mM (Sprague-Dawley rat, female; oral, 120 mg/kg/day, 14 days).
For `C[C@@H]1NC(=O)[C@H](CCCCNC(=O)CO/N=C/C(=O)NCCCC[C@@H]2NC(=O)[C@@H](Cc3ccccc3)NC(=O)[C@H](CC(=O)O)NC(=O)CNC(=O)[C@H](CCCNC(=N)N)NC2=O)NC(=O)CNC(=O)[C@@H]2CCCN2C(=O)[C@H](CCCCNC(=O)CO/N=C/C(=O)NCCCC[C@@H]2NC(=O)[C@@H](Cc3ccccc3)NC(=O)[C@H](CC(=O)O)NC(=O)CNC(=O)[C@H](CCCNC(=N)N)NC2=O)NC(=O)[C@H](CCCCNC(=O)CN2CCCNCCNCCCNCC2)NC(=O)[C@H](CCCCNC(=O)CO/N=C/C(=O)NCCCC[C@@H]2NC(=O)[C@@H](Cc3ccccc3)NC(=O)[C@H](CC(=O)O)NC(=O)CNC(=O)[C@H](CCCNC(=N)N)NC2=O)NC(=O)CNC(=O)[C@@H]2CCCN2C(=O)[C@H](CCCCNC(=O)CO/N=C/C(=O)NCCCC[C@@H]2NC(=O)[C@@H](Cc3ccccc3)NC(=O)[C@H](CC(=O)O)NC(=O)CNC(=O)[C@H](CCCNC(=N)N)NC2=O)NC1=O` [copper-64 labelled], the tissue uptake was 5.14 ± 0.95 %ID/g (PET imaging; mouse, U-87 MG tumour xenograft, kidney; intravenous, 24 h).
Under “oral mucositis incidence”, `CCN1[C@@H](C(=O)NC23CCC(C(=O)O)(CC2)CC3)[C@H](c2cccc(Cl)c2F)[C@]2(C(=O)Nc3cc(Cl)ccc32)C12CCCCC2` is recorded as 0% (patients with advanced solid tumours; 150 mg).
The relative abundance of `C[C@H]1CN(c2n[nH]c3nc(N[C@H]4CC[C@H](NS(=O)(=O)CCC(F)(F)F)CC4)ncc23)CCO1` is reported as 1.07 (MYLK (Homo sapiens, UniProt Q15746); inhibitor, Kinobeads competition profiling; 0.16 µM; relative to: vehicle).

Repeated from above:
`COc1ncccc1-c1cnn2ccc(N3CCN(C(=O)OC(C)C)CC3)nc12` has a drug concentration of 8.5 µM (rat, thermal hyperalgesia model, brain; oral, 30 mg/kg, 180 min).
The lymphocytes of `COc1cccc(Oc2ccccc2NC(=O)CNC(=O)c2cccc3ccccc23)c1` is reported as 64% and 65% and 44.1% (esterase-deficient SCID mice, male, blood; oral, 40 mg/kg/day, 14 days, toxicity study; relative to: white cells).
